Experimental data pooled from the literature.
Numbers after ± are the reported error.

SMILES | tested on | test | test system | setting | how to read | measurement | value
C[C@@H](N)C1CCN(S(=O)(=O)c2cccc3cnccc23)CC1 |  |  | healthy volunteers | 250 mg, fasted |  | participants with limb abscess | 0%
CCN1/C(=C/C(C)=O)Sc2ccc(F)cc21 |  |  | cynomolgus monkey | oral, 30 mg/kg, 6 h post-dose | baseline: pre-dose | diastolic blood pressure change | 101 ± 1.3%
COc1cccc(OC)c1-c1cc(C(=O)NC2(C(=O)O)C3CC4CC(C3)CC2C4)nn1-c1ccc(C(=O)N(C)CCCN(C)CCCN(C)C(=O)CN2CCN(CC(=O)[O-])CCN(CC(=O)[O-])CCN(CC(=O)[O-])CC2)cc1C(C)C.[177Lu+3] (stereo not shown) |  |  | mouse, HT-29 xenograft, liver | 4 h post injection |  | tissue uptake | 2.7 %ID/g
Cc1ccc(Sc2ccccc2N2CCNCC2)c(C)c1 |  | refers to: Somnolence | healthy adult women | oral, 10 mg daily, 12 days |  | participants with TEAE | 16.7%
CCc1cc(C(=O)NC)c2nccc(N3CCc4c(cc(Cn5ccnc5)cc4-c4cn(C)nc4C(F)(F)F)C3=O)c2c1 |  |  | Sprague Dawley rat, male, bile duct-cannulated, plasma | oral, 50 mg/kg |  | t1/2 | 1.5 h
C[C@]12C[C@@]34C=CC(=O)[C@@](C)(CCC(=O)Nc5c(O)ccc(C(=O)O)c5O)[C@@H]3[C@H](C[C@@H]1C4)O2 |  |  | C57BL/6 mice, male, plasma | intravenous, 3 mg/kg |  | clearance | 0.96 L/h/kg
C=CC(=O)Nc1cc(Nc2nccc(-c3cn(C)c4ccccc34)n2)c(OC)cc1N(C)CCN(C)C |  | storage stability | human dried blood spot | 30 d, on ice, LQC level |  | recovery | 56.7%
CC(C)n1c(Nc2cccnc2)nc2cnc(Nc3ccc(N4CCN(C)CC4)cc3)nc21 |  | refers to: at least one TEAE | healthy male subjects | oral, 100 mg, study, added: gemfibrozil |  | subjects with adverse event | 78.6%
Cn1cc(C(=O)O)ccc1=O | THP-1 | pyroptotic LDH release |  | 2 µM, 40 min, added: LPS then nigericin |  | inhibition | 40.2%
COc1cc(C(=O)N2CCC3(CC2)CC(=O)c2c(cnn2C(C)C)C3)cc(-c2ccc(C(=O)O)cc2)n1 |  | refers to: direct LDL cholesterol | human, fasting serum | 30 mg every 12 h, day 13, adjusted geometric mean | baseline: baseline | percentage change from baseline | -6%
CCc1nc(C(N)=O)c(Nc2ccc(N3CCC(N4CCN(C)CC4)CC3)c(OC)c2)nc1NC1CCOCC1 |  |  | Japanese patients, plasma | oral, 200 mg, cycle 0 day -2, single dose, mean |  | AUC(0-24) | 3.6 µg·h/mL
CNC(=O)c1ccc(-c2cnc3ncc(Cc4ccc5ncccc5c4)n3n2)cc1F |  |  | healthy human subjects | oral, dose not given, all grades, added: rifampicin | baseline: subjects | treatment-related headache incidence | 11.5%
CO[C@H]1C[C@@H]2CC[C@@H](C)[C@@](O)(O2)C(=O)C(=O)N2CCCC[C@H]2C(=O)O[C@H]([C@H](C)C[C@@H]2CC[C@@H](O)[C@H](OC)C2)CC(=O)[C@H](C)/C=C(\C)[C@@H](O)[C@@H](OC)C(=O)[C@H](C)C[C@H](C)/C=C/C=C/C=C/1C |  |  | healthy adult horses | oral, 0.06 mg/kg, 0 h |  | rectal temperature | 36.5 ± 0.6 °C
O=c1ccn([C@@H]2O[C@H](COP(=O)(O)O)[C@@H](O)[C@H]2O)c(=O)[nH]1 | THP-1 | pyroptotic LDH release |  | 2 µM, 40 min, added: LPS then nigericin |  | inhibition | 22.4%
O=C([O-])CCCCCCCNC(=O)c1ccccc1O.[Na+] |  |  | healthy postmenopausal women | 300 mg, oral contraceptive alone, geometric mean |  | AUC(0-24h) | 1.48 µg·h/mL
CNCc1ccc(-c2[nH]c3cc(F)cc4c3c2CCNC4=O)cc1 |  |  | human patients | oral, 600 mg twice daily, grade 2 |  | neutropenia incidence | 3.8%
CCCCOc1ccc([C@H]2CC[C@H](CCC)CC2)c(F)c1F |  |  | rat, fetus | 10 ng/mL in perfusate, low dose, mixture of 21 LCMs |  | fetal accumulation | 0.737 ± 0.753 ng/g
Cc1ccc([C@@H]2O[C@H](CO)[C@@H](O)[C@H](O)[C@H]2O)cc1Cc1ccc(-c2ccc(F)cc2)s1 |  | refers to: inorganic phosphorus | Japanese type 2 diabetes patients | 200 mg, day 4, 24 h urine collection | baseline: baseline | urinary phosphate excretion change | 55.6 mg
CC[C@H](C)[C@H](NC(=O)[C@H](CO)NC(=O)[C@H](CCCNC(=N)N)NC(C)=O)C(=O)N[C@H]1CSSC[C@@H](C(=O)N[C@H](C(N)=O)[C@@H](C)O)NC(=O)[C@H](CCCNC(=N)N)NC(=O)[C@H](Cc2c[nH]cn2)NC(=O)[C@H](C)NC(=O)CNC(=O)[C@H](Cc2c[nH]c3ccccc23)NC(=O)[C@H](CC(=O)O)NC(=O)[C@H](CCC(N)=O)NC(=O)[C@H](Cc2ccc3ccccc3c2)NC(=O)[C@H](C(C)C)NC1=O |  | isocratic RP-HPLC, C18 | 32% acetonitrile, phosphate pH 7.4, 1% TFA | 25 °C |  | retention factor | 1.234 ± 0.006

For quick reference, copied from above:
SMILES | tested on | test | test system | setting | how to read | measurement | value
CNC(=O)c1ccc(-c2cnc3ncc(Cc4ccc5ncccc5c4)n3n2)cc1F |  |  | healthy human subjects | oral, dose not given, all grades, added: rifampicin | baseline: subjects | treatment-related headache incidence | 11.5%
CO[C@H]1C[C@@H]2CC[C@@H](C)[C@@](O)(O2)C(=O)C(=O)N2CCCC[C@H]2C(=O)O[C@H]([C@H](C)C[C@@H]2CC[C@@H](O)[C@H](OC)C2)CC(=O)[C@H](C)/C=C(\C)[C@@H](O)[C@@H](OC)C(=O)[C@H](C)C[C@H](C)/C=C/C=C/C=C/1C |  |  | healthy adult horses | oral, 0.06 mg/kg, 0 h |  | rectal temperature | 36.5 ± 0.6 °C
O=c1ccn([C@@H]2O[C@H](COP(=O)(O)O)[C@@H](O)[C@H]2O)c(=O)[nH]1 | THP-1 | pyroptotic LDH release |  | 2 µM, 40 min, added: LPS then nigericin |  | inhibition | 22.4%
